Experimental data pooled from the literature.
A part holds a random share of what one study measured. “And” joins repeats or separate records; there may be more than shown.
Sequence of UniProt O60331 (whole entry, looked up): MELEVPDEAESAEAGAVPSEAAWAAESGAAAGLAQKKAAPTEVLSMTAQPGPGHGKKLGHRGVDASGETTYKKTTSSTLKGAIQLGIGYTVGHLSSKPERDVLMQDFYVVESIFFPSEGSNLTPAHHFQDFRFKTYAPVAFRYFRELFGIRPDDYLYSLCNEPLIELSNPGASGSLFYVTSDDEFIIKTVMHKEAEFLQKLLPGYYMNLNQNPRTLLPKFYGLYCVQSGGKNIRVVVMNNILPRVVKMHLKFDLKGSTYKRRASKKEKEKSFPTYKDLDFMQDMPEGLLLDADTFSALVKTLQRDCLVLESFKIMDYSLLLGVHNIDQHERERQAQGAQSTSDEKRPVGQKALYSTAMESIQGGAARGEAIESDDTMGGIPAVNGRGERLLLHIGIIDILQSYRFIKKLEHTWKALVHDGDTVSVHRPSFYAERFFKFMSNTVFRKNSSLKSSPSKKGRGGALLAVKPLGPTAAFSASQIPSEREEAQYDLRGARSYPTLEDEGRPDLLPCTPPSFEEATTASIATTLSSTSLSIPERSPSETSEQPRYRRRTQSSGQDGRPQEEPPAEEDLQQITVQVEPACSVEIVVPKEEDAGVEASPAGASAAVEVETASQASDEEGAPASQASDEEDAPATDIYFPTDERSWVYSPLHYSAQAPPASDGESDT
Sequence of UniProt Q8NE63 (whole entry, looked up): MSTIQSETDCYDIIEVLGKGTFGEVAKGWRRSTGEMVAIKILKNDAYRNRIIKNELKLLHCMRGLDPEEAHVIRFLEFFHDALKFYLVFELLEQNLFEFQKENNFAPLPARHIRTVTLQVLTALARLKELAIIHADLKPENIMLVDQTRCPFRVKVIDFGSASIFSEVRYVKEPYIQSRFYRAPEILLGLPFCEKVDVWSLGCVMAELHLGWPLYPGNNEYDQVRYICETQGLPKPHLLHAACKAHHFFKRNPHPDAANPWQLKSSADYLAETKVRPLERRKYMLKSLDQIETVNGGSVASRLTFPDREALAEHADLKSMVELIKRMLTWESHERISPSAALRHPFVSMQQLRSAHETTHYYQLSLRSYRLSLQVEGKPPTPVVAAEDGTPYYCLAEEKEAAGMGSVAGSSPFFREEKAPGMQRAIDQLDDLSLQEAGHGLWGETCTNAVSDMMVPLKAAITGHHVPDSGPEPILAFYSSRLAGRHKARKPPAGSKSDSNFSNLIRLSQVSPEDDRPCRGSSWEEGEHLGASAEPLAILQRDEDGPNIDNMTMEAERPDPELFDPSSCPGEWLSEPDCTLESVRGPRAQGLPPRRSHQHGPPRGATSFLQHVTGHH
Sequence of UniProt Q96NX5 (whole entry, looked up): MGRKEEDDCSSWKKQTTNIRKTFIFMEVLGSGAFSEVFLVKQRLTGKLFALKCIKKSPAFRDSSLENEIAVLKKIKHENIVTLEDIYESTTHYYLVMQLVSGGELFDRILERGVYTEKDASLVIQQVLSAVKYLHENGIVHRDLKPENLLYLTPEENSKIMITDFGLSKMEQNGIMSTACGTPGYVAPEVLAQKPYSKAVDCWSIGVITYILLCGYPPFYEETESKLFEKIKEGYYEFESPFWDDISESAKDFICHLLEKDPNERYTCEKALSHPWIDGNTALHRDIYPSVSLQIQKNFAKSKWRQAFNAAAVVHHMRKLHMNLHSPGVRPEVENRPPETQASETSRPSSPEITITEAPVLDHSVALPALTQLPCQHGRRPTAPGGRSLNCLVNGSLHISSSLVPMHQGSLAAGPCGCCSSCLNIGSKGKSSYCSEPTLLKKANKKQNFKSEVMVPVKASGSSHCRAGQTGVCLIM
Sequence of UniProt Q8IWQ3 (whole entry, looked up): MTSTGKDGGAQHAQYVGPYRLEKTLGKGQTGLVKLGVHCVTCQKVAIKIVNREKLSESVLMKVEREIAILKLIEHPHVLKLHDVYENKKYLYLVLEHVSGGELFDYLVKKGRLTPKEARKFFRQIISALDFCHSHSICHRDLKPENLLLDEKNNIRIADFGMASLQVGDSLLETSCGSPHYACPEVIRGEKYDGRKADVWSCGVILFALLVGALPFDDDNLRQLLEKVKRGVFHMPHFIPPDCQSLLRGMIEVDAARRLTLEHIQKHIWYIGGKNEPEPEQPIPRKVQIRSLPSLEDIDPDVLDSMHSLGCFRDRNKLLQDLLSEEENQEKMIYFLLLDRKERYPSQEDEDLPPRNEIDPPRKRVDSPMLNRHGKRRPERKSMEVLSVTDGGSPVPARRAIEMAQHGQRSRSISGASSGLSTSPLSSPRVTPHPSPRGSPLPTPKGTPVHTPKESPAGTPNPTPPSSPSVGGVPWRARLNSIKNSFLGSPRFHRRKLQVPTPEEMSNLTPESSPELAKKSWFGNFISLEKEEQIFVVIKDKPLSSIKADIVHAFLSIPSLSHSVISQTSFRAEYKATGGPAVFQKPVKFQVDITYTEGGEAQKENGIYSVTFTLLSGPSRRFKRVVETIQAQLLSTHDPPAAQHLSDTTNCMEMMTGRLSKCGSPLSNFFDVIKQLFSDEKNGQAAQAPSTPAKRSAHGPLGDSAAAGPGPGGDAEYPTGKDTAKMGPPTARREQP
Sequence of UniProt P54764 (whole entry, looked up): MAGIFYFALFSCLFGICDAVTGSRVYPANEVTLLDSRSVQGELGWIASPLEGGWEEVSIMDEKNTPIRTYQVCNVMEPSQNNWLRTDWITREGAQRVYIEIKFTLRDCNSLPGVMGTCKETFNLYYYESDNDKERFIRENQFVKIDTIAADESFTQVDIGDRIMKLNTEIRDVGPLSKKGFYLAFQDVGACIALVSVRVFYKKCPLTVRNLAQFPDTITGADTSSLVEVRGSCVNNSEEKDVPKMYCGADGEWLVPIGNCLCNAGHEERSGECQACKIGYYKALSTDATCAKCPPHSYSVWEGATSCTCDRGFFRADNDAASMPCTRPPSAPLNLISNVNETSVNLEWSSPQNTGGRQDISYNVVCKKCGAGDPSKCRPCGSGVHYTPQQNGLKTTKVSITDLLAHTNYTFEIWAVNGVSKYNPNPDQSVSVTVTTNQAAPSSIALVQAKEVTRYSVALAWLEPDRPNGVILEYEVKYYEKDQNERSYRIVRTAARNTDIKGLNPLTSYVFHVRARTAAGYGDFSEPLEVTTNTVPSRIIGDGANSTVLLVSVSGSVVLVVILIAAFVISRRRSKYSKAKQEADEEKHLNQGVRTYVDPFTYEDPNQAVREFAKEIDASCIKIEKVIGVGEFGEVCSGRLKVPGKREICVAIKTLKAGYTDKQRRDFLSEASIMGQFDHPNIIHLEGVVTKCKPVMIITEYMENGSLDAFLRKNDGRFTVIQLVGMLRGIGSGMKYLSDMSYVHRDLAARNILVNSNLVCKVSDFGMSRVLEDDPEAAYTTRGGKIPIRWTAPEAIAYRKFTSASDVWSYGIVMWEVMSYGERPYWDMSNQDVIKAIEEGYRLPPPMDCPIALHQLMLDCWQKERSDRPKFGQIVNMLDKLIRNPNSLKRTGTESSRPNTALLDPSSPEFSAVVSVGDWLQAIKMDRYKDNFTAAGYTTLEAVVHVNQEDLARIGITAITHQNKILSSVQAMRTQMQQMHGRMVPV
Sequence of UniProt Q9Y6M4 (whole entry, looked up): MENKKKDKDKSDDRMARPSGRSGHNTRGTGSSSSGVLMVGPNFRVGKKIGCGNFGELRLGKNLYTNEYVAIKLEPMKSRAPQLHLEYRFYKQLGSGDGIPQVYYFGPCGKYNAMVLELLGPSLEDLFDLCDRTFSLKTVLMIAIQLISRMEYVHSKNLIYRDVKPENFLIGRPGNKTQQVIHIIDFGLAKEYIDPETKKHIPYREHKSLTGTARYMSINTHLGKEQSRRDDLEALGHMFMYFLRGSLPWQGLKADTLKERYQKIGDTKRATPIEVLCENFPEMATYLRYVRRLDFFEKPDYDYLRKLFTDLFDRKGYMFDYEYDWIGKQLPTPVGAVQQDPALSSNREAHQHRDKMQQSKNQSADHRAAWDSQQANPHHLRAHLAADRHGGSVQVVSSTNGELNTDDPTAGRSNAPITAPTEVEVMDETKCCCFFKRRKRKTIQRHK
Sequence of UniProt Q9BRS2 (whole entry, looked up): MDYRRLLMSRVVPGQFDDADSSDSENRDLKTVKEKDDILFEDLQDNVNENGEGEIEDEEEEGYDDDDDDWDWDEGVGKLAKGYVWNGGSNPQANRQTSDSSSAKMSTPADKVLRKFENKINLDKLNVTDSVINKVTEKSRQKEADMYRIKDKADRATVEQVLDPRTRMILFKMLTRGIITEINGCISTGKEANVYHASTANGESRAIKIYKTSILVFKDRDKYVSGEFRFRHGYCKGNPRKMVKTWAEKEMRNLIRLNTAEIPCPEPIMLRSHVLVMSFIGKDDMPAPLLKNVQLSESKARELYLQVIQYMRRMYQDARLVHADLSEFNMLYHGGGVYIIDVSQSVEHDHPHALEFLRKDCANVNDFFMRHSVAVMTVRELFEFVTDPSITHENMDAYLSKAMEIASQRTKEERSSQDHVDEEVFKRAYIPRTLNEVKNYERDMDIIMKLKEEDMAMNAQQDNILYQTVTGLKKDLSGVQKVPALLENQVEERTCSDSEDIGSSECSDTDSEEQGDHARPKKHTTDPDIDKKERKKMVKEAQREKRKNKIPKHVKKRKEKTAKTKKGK

Block 1 — cell line: mouse MPNST tumor cells; technique: high-content immunofluorescence imaging; item: nuclear SOX9; concentration: 10 µM; time: 12 h; notes: mean of 2 replicates; relative to: DMSO control; direction: higher = more nuclear SOX9
`Cc1cc(C)cc(C(=O)NOCCCCCC(=O)NO)c1` — result for “nuclear SOX9 intensity”: 127 % of DMSO.
`CCn1c(-c2nonc2N)nc2cncc(C(=O)N3CC[C@H](N)C3)c21`: “nuclear SOX9 intensity” 156 % of DMSO.
`CC(=O)OCC(=O)[C@@]1(OC(C)=O)[C@@H](C)C[C@H]2[C@@H]3C[C@H](F)C4=CC(=O)C=C[C@]4(C)[C@@]3(F)[C@@H](O)C[C@@]21C`: “nuclear SOX9 intensity” 86.7 % of DMSO.
`CCC(NC(C)C)C(O)c1ccc(O)c(O)c1` (centres unmarked): “nuclear SOX9 intensity” 102 % of DMSO.
Under “nuclear SOX9 intensity”, `CCN1CCCC1CNC(=O)c1cc(S(N)(=O)=O)ccc1OC` (centres unmarked) is recorded as 105 % of DMSO.
`N=C1NC(=O)/C(=C/c2ccc(O)cc2)S1` — result for “nuclear SOX9 intensity”: 74.8 % of DMSO.
`CN(CCCCCCCCCCN(C)C(=O)Oc1cccc([N+](C)(C)C)c1)C(=O)Oc1cccc([N+](C)(C)C)c1` — result for “nuclear SOX9 intensity”: 92.5 % of DMSO.
For `CC(C)(Cc1ccccc1)NCC(O)c1ccc(O)c(NS(C)(=O)=O)c1` (centres unmarked), “nuclear SOX9 intensity” read 101 % of DMSO.
Under “nuclear SOX9 intensity”, `COc1ccccc1OCC(O)CN1CCN(CC(=O)Nc2c(C)cccc2C)CC1` (centres unmarked) is recorded as 95.4 % of DMSO and 107 % of DMSO and 96.6 % of DMSO.
`COC(=O)c1ccc(N2CCN(C)CC2)c(NC(=O)c2cccc(OC)c2)c1` — result for “nuclear SOX9 intensity”: 103 % of DMSO.
`O=C(/C=C/c1ccccc1)NC(NC(=S)Nc1cccc2cccnc12)C(Cl)(Cl)Cl` (centres unmarked) — result for “nuclear SOX9 intensity”: 95.2 % of DMSO.
`CC(CCc1ccc(O)cc1)NCCc1ccc(O)c(O)c1` (centres unmarked) — result for “nuclear SOX9 intensity”: 103 % of DMSO and 99.7 % of DMSO.
`NC(Cc1cc(I)c(Oc2cc(I)c(O)c(I)c2)c(I)c1)C(=O)O` (centres unmarked) — result for “nuclear SOX9 intensity”: 84 % of DMSO.
`Cc1nccc(-c2cn(Cc3ccccc3)c3cnccc23)n1` — result for “nuclear SOX9 intensity”: 137 % of DMSO.
For `COc1ccc(C2=N[C@@H](c3ccc(Cl)cc3)[C@@H](c3ccc(Cl)cc3)N2C(=O)N2CCNC(=O)C2)c(OC(C)C)c1`, “nuclear SOX9 intensity” read 77.2 % of DMSO and 76.8 % of DMSO.

Block 2 — host: mouse; medium: microsomes or S9; concentration: 2 µM; time: 0.5 h
`Cc1c(Br)c(-c2nc3c4ccccc4ncn3n2)nn1C` gave a remaining compound of 0.252%.
The remaining compound of `COc1ccccc1N1C(=O)c2cc3ccccc3n2CC1(C)C(=O)NC1CCCCCCC1` (centres unmarked) is reported as 1.85%.
For `Cc1nc2c(cc1Br)nc1n2C(C)CC1` (centres unmarked), the remaining compound was 94.3%.
`COc1cccc2c1Oc1ccsc1C=C2C#N` gave a remaining compound of 64.2%.
The remaining compound of `CC1(C)CC(NC(=O)CCc2nc3ncc(Br)cc3[nH]2)CC(C)(C)N1` is reported as 70.7%.
The remaining compound of `O=C(Cn1cnc(C2CC2)cc1=O)N1CCC(N2CC(=O)N(c3ccccc3)C2=O)CC1` is reported as over 99%.
`CC1(C)C(C(=O)O)C1C(=O)Nc1c[nH]c(=O)[nH]c1=O` (centres unmarked) gave a remaining compound of 51.7%.
`Cc1ccc2ncc(-c3ccc(CN(C)C)cn3)cc2c1` has a remaining compound of 8.79%.
`O=C1c2ccsc2CCC1N1CCN(c2ncccn2)CC1` (centres unmarked) has a remaining compound of 0.245%.
For `O=c1c2ccccc2nc(-c2ccco2)n1-c1cccc2ccccc12`, the remaining compound was 82.8%.
`CC1(COc2ccc(Br)cc2)CCC(C(C)(C)C)=NO1` (centres unmarked) gave a remaining compound of 79.5%.
`CCOC(=O)N1CCN(C2CCCc3sccc32)CC1` (centres unmarked) gave a remaining compound of under 1%.
For `O=C(Cn1cnc2ccccc21)NCc1n[nH]c(=O)c2ccccc12`, the remaining compound was over 100%.

Block 3 — effect on: enzyme activity; action: inhibitor; concentration: 0.5 µM; relative to: control
Target: Death-associated protein kinase 3 (DAPK3, Homo sapiens, UniProt O43293)
Sequence of UniProt O43293 (whole entry, looked up): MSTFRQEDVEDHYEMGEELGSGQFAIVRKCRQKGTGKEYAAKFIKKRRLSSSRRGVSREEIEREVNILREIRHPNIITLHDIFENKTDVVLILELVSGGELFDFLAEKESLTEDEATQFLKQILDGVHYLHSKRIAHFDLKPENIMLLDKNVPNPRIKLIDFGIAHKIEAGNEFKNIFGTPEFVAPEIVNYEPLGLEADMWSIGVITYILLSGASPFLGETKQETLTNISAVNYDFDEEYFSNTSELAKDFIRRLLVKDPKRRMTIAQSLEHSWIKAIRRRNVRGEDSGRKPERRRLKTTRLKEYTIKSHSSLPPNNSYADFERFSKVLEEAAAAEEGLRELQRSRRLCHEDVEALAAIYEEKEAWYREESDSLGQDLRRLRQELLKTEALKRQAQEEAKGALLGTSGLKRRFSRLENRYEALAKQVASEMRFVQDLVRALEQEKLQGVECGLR
The remaining activity of `Nc1ncnc2c1cnn2-c1ccccc1` is reported as 103%.
`COc1cc(Nc2c(C#N)cnc3cc(OCCCN4CCN(C)CC4)c(OC)cc23)c(Cl)cc1Cl` has a remaining activity of 107%.
For `CSc1nc(-c2ccnc(N[C@@H](C)c3ccccc3)c2)c(-c2ccc(F)cc2)[nH]1` (racemic), the remaining activity was 94.3%.
For `COc1ccc(S(=O)(=O)N(CCO)c2ccccc2CN(C)CC=Cc2ccc(Cl)cc2)cc1`, the remaining activity was 101%.
The remaining activity of `O=S(=O)(NCCNC/C=C/c1ccc(Br)cc1)c1cccc2cnccc12` is reported as 97.4%.
`CC(=O)c1ccc(N2CCOCC2)cc1O` gave a remaining activity of 98.1%.
`CCCC(=O)Oc1ccc2[nH]c(C(=O)c3cc4ccccc4[nH]3)cc2c1` gave a remaining activity of 88.5%.
With `O=C1NC(=O)C(c2c[nH]c3ccccc23)=C1c1c[nH]c2ccccc12` the remaining activity was 104%.
For `Cc1cncc2cccc(S(=O)(=O)N3CCCN(C(=O)CN)C[C@@H]3C)c12`, the remaining activity was 90.4%.
`N#CC(=C(N)Sc1ccc(N)cc1)c1ccccc1C(F)(F)F` has a remaining activity of 102%.
With `CC(C)(C)n1nc(Cc2cccc3ccccc23)c2c(N)ncnc21` the remaining activity was 105%.
`CCc1[nH]c(-c2ccc(OC)cc2)nc1-c1ccncc1` has a remaining activity of 95.8%.
For `Cc1cc(Nc2nc(-c3ccccc3)nc3ccccc23)n[nH]1`, the remaining activity was 57.5%.
`CC#CC(=O)Nc1cc2c(Nc3ccc(F)c(Cl)c3)ncnc2cn1` has a remaining activity of 97.8%.
`CC[n+]1c(/C=C/N(C)c2ccccc2)n(-c2ccccc2)c2ccc(-c3nc4ccccc4s3)cc21` has a remaining activity of 95.4%.
The remaining activity of `Nc1nc(Nc2ccc(S(N)(=O)=O)cc2)nn1C(=O)c1c(F)cccc1F` is reported as 99.4%.
The remaining activity of `NC(=O)c1ccc(N(C(N)=O)c2c(F)cccc2F)nc1-c1ccc(F)cc1F` is reported as 107%.
For `O=C1Cc2c([nH]c3ccc([N+](=O)[O-])cc23)-c2ccccc2N1`, the remaining activity was 103%.
The remaining activity of `Fc1ccc(-c2nc3n(c2-c2ccncc2)CCS3)cc1` is reported as 100%.
The remaining activity of `Cc1ccc(NC2=CC(=O)c3sc(C)nc3C2=O)cc1` is reported as 104%.
The remaining activity of `Oc1ccc(Nc2nc(-c3ccc(Cl)cc3)cs2)cc1` is reported as 103%.
`Nc1nccc(-c2c(-c3ccc(F)cc3)ncn2C2CCNCC2)n1` has a remaining activity of 96.5%.

Block 4 — effect on: cell-free assay; technique: competition with immobilised ligand; concentration: 1 µM
SMILES: O=C1CCc2cc(Nc3cc(OC4CCOCC4)c([N+](=O)[O-])cc3Cl)ccc2N1
It gave 100% for remaining binding (Eukaryotic translation initiation factor 2-alpha kinase 1 (EIF2AK1, Homo sapiens, UniProt Q9BQI3)).
It gave 79% for remaining binding (Cyclin-dependent kinase-like 3 (CDKL3, Homo sapiens, UniProt Q8IVW4)).
It gave 67% for remaining binding (Casein kinase I isoform gamma-3 (CSNK1G3, Homo sapiens, UniProt Q9Y6M4)).
It gave 100% for remaining binding (Serine/threonine-protein kinase RIO1 (RIOK1, Homo sapiens, UniProt Q9BRS2)).
Calcium/calmodulin-dependent protein kinase type 1G (CAMK1G, Homo sapiens, UniProt Q96NX5) — remaining binding: 100%.
It gave 100% for remaining binding (Phosphatidylinositol 4-phosphate 5-kinase type-1 gamma (PIP5K1C, Homo sapiens, UniProt O60331)).
For Serine/threonine-protein kinase BRSK2 (BRSK2, Homo sapiens, UniProt Q8IWQ3): remaining binding read 100%.
It gave 98% for remaining binding (Protein kinase C iota type (PRKCI, Homo sapiens, UniProt P41743)).
The remaining binding was 84% (Ephrin type-A receptor 4 (EPHA4, Homo sapiens, UniProt P54764)).
It gave 99% for remaining binding (Mitogen-activated protein kinase 1 (MAPK1, Homo sapiens, UniProt P28482)).
Tyrosine-protein kinase ZAP-70 (ZAP70, Homo sapiens, UniProt P43403) — remaining binding: 91%.
For Serine/threonine-protein kinase WNK1 (WNK1, Homo sapiens, UniProt Q9H4A3): remaining binding read 86%.
It gave 97% for remaining binding (Platelet-derived growth factor receptor alpha (PDGFRA, Homo sapiens, UniProt P16234)).
It gave 94% for remaining binding (Phosphatidylinositol 3-kinase C2 domain-containing subunit gamma (PIK3C2G, Homo sapiens, UniProt O75747)).
For Homeodomain-interacting protein kinase 4 (HIPK4, Homo sapiens, UniProt Q8NE63): remaining binding read 98%.
